{"data": "Measurements collected from several papers", "FLT3 D835H": "Receptor-type tyrosine-protein kinase FLT3 (FLT3, Homo sapiens, UniProt P36888, D835H)", "FLT3 D835V": "Receptor-type tyrosine-protein kinase FLT3 (FLT3, Homo sapiens, UniProt P36888, D835V)", "FLT3 R834Q": "Receptor-type tyrosine-protein kinase FLT3 (FLT3, Homo sapiens, UniProt P36888, R834Q)", "FLT3 autoinhibited": "Receptor-type tyrosine-protein kinase FLT3, autoinhibited (FLT3, Homo sapiens, UniProt P36888)", "note": "Compare with care: the assays were run in different laboratories."}
{"Structure (SMILES)": "C=CC(=O)N1CCc2ccc(-n3c(=O)ccc4cnc5ccc(-c6cnn(C)c6)cc5c43)cc21", "target": "FLT3 D835H", "technique": "KINOMEscan", "tested at": "1 µM", "reference": "DMSO control", "remaining binding": "100%"}
{"Structure (SMILES)": "Nc1ncc2c(n1)-c1c([nH]c3ccc(C4=CCOCC4)cc13)CCC2", "target": "FLT3 D835V", "effect on": "binding", "technique": "competition with immobilised ligand", "tested at": "1 µM", "remaining binding": "80%"}
{"Structure (SMILES)": "Cc1ccc(-c2c(/C=C(\\C#N)C(=O)NC(C)C)n(CCCO)c3ncnc(N)c23)cc1", "target": "FLT3 R834Q", "effect on": "cell-free assay", "technique": "competition with immobilised ligand", "tested at": "1 µM", "remaining binding": "96%"}
{"Structure (SMILES)": "CNC1C[S+]2CC[S+]3CC[S+](C1)[Ru-4]321([N]=C=S)[n]2c3ccc(OC)cc3c3c4c(c5cc(F)c[n+]1c5c32)C(=O)NC4=O (stereo not shown)", "target": "FLT3 (Homo sapiens, UniProt P36888, N841I)", "technique": "KinomeScan", "tested at": "0.1 µM", "reference": "untreated", "remaining binding": "23%"}
{"Structure (SMILES)": "CCN1CCN(Cc2ccc(C(=O)Nc3ccc(C)c(NCc4cnc5[nH]ccc5c4OC)c3)cc2C(F)(F)F)CC1", "target": "FLT3 D835H", "effect on": "binding", "technique": "competition with immobilised ligand", "tested at": "1 µM", "remaining binding": "3.8%"}
{"Structure (SMILES)": "C=CC(=O)N1CCCC(n2c(=O)c3ncccc3n(Cc3ccc(Oc4ccccc4)cc3)c2=O)C1 (stereo not shown)", "target": "FLT3 autoinhibited", "effect on": "cell-free assay", "technique": "competition with immobilised ligand", "tested at": "1 µM", "remaining binding": "61%"}
{"Structure (SMILES)": "COc1c(Cl)cccc1Nc1c(-c2ccncc2C#C[C@@]2(C)CCCN2C(=O)/C=C/CN(C)C)[nH]c2c1C(=O)NCC2", "target": "FLT3 D835V", "effect on": "binding", "technique": "competition with immobilised ligand", "tested at": "3 µM", "remaining binding": "52%"}
{"Structure (SMILES)": "CC(C)=CC1OC(C)(C)C2C=C3C(=O)C(Cl)=CC(O)C3C3C(O)C4OC4C(=O)C132 (stereo not shown)", "target": "FLT3 D835V", "effect on": "cell-free assay", "technique": "competition with immobilised ligand", "tested at": "10 µM", "remaining binding": "100%"}
{"Structure (SMILES)": "CNC(=O)C1CCN(c2cc(C)c(F)cc2NC(=O)c2ccc(-c3cc(O)ccc3C)c(C)c2)CC1", "target": "FLT3 R834Q", "effect on": "binding", "technique": "competition with immobilised ligand", "tested at": "1 µM", "remaining binding": "88%"}
{"Structure (SMILES)": "Cc1cnc2nc1Nc1cccc(c1)COC/C=C/COCc1cc(ccc1OCCN1CCOCC1)N2", "target": "FLT3 autoinhibited", "effect on": "binding", "tested at": "0.1 µM", "remaining binding": "64%"}
